Results from different studies.
Parts stem from different laboratories: compare values within a part only.

Study 1
Organism: Saccharomyces cerevisiae
Observed: binding
Method: competitive growth deep sequencing
Molecule type: peptide
Strain: cyclin D3-Cln2 fusion strain
Tested at: concentration not given
Setting: peptide tiling library
Reading: direction not given
Under “growth enrichment score”, `RNRGPKLNAMLRLGVL` is recorded as -1.51.
`PQWPCGKHKRVLIFAS` — result for “growth enrichment score”: -0.625.
`FQDSGYNELKSCSFDN` — result for “growth enrichment score”: -0.109.
Under “growth enrichment score”, `KDDDKAWEYEERDRRS` is recorded as 0.743.
`VLVRTSACRSLFGPVD` — result for “growth enrichment score”: -0.338.
`TSPGPVLLHPSPSTTQ` — result for “growth enrichment score”: 0.554.
For `DGCSPIKNWSPMRL`, “growth enrichment score” read -0.249.
`QNPCGSKACRRLFGPV`: “growth enrichment score” -0.264.
`SGYLTDENEVGFRG` — result for “growth enrichment score”: 0.491.
For `VRDLSYRLVFLACCVA`, “growth enrichment score” read -0.276.
For `NNIRKALSFDNRGEEH`, “growth enrichment score” read 1.5.
Under “growth enrichment score”, `SDSTVTKLDFDLEP` is recorded as 0.306.
`NFETPEAETPIRSPFK`: “growth enrichment score” 0.525.
`TRRRLFVENDSP`: “growth enrichment score” -0.792.
`LENIEPLQVSFAVLSS`: “growth enrichment score” -0.388.

Study 2
Target: RNA binding protein fox-1 homolog 2, RRM domain, GST-SBP tag (RBFOX2, Homo sapiens, UniProt O43251-10, residues 100-194)
Method: RNA Bind-n-Seq
Molecule type: RNA
Matrix: in vitro
Tested at: 365 nM
Setting: natural RNA segment, single round, ends assumed
Relative to: no-protein control
Reading: higher = stronger binding
Constant ends, left off below: GGGAGUUCUACAGUCCGACGAUC … UGGAAUUCUCGGGUGCCAA
Residues (chain): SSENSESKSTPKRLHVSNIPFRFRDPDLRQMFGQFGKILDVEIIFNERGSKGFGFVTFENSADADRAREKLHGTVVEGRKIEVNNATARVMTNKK
For `UGAGAAGCCUCCACAGCAGGACCACACCACCACCACCGACUCAGAGAUGGAGGAGCCCUACCUGCAAGGAUCCAAAGAGGAGGGCACUCCCCUCAAACUCAAGUGUGAGC`, “RBNS enrichment (R)” read 0.373.
For `UGAUGGGAACAAGAGUAUGAUGUGCUUGGUAUCUGGCUUUUCCCCAAGCAGUCGAUGUCAAGGUUACGACACCAGUGACAGAGCAUGGUUUGGAAAUCCUUUAUUCUCUU`, “RBNS enrichment (R)” read 2.89.
`UAUGCAAAAUGUCUGUUUUAGUUGGAAUGACUGAAAGAAGAACAGCUGUUCCUGUGUUCUUCGUAUAUACACACAAAAAGGAGCGGGCAGGGCCGCUCGAUGCCUUUGCU` — result for “RBNS enrichment (R)”: 0.776.
`CAGCCAGCCUCUUCUAGAACCCUAGCCCAGGGACUGGAGCAGGAAAGGGACCUUCAAAGUGAAGACUGCCUUGUCCCGCAGCUCCUUCUGGCUUAGAUUGAAAAAUGGGC`: “RBNS enrichment (R)” 0.329.
For `AGUUCUUUUCAAACCCAGUUUCCCUUUUUCAAACUUUAAAACCUGCAUAAUUCUGCAGAUGUCCUAGGGUUUGAGUCAGUAACUUGUGAAUGAAAGUCAUUGGUAUUUGG`, “RBNS enrichment (R)” read 0.346.
For `UCCAGGAAGGAGGAGCUUCCUACUUUUGAGUUUCUCUGUGGAAAUAAAACAUGAAUCUUGUUUCCCUCGACUUUCUCAAAUUUUAUUCUUUAAUGCUAUGUUGAUGGCCU`, “RBNS enrichment (R)” read 0.435.
`CUUCUGGGGUGGGGACAGGCCCUCAUGGCAGGCUUGUUCCCGUGGCUCUGAGCGAGGCCUCUUCCUGCUGGGCUCCCAGACUCCUGCAUCCAGGCCCCCACCUUCUCGGC` — result for “RBNS enrichment (R)”: 0.506.
Under “RBNS enrichment (R)”, `UCCCGUCCGCUGUGGGUGGUCCCCAGCUCUCCUCUGUGGGUUUUACCGGAAAGGUGGCCCCAGCUGUUGACUUCCAGUCACUGUCCCAGACGGCACAAGGUUUUCUGUAG` is recorded as 0.216.
For `ACCAUCCGCUGCAUGGUCACAGUAGAGCCCCCGUGACUCGCCUGUCUUUGGGUCACCUGCAUUCCAUAGCAUUGUGCUUGUACUUGUGCUCACACGGUUACCUAGGGUAG`, “RBNS enrichment (R)” read 16.1.
For `AAGGAAAAAGGCUAAUCUAAGUUCCUGCGGGCAGUGGCAUGACUGGAGCACAGCCUCCUGCCUCCCAGCCCGGACCCAAUGCACUUUCUUGUCUCCUCUAAUAAGCCCCA`, “RBNS enrichment (R)” read 0.592.
Under “RBNS enrichment (R)”, `GUAAGUUAACAGCCAGAGACAGACACUGUGCAGGCAUUGCAAAUAGAUGGAAUUACAGCAAAAUGUGCUCAAUGUAUGUGUCUGCUCACAACACUGGGAGAUGUGUUUGC` is recorded as 0.566.
For `GGGGGUUUGCGGUUUUUCUGGGACAACAAGUUUGACCAUGCAAUGGUAGCUUUUCUGGACUGUGUGCAGCAGUUCAAAGAAGAGGUGGAAAAAGGAGAGACUCGAUUUUG`, “RBNS enrichment (R)” read 0.847.

Study 3
Target: Histone acetyltransferase KAT6A, winged helix 2, GST fusion (KAT6A, Homo sapiens, UniProt Q92794, residues 85-181)
Method: protein binding microarray
Molecule type: double-stranded DNA, one strand shown
Matrix: in vitro
Tested at: not given
Setting: 8-mer, flanks averaged, mean of 2 arrays, mostly near background
Relative to: not given
Reading: higher = stronger binding
Target sequence (chain): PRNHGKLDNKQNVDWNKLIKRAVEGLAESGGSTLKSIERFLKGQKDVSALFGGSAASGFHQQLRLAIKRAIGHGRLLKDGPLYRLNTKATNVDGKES
The E-score of `ATCCGCTG` is reported as 0.0565.
The E-score of `AGCTAGGA` is reported as -0.0909.
`GGTGGCAC` gave an E-score of 0.0785.
`AACCGCTA` gave an E-score of -0.0443.
With `AGCGGATG` the E-score was 0.0587.
`GCTACTAC` has an E-score of -0.0622.
The E-score of `CTACCGAC` is reported as -0.00119.
`ACAAGATG` gave an E-score of -0.119.
For `AAAGTACG`, the E-score was -0.00568.
`ACAGTTTA` gave an E-score of -0.0423.
For `ACGTATAA`, the E-score was -0.156.
The E-score of `CAAATTAG` is reported as -0.0811.
`ATGGAGAA` gave an E-score of 0.0168.
With `GTGGCGGA` the E-score was 0.0758.
`AAGTGAAG` has an E-score of -0.131.
With `ATTTAGAC` the E-score was -0.028.
For `CCGTTGGA`, the E-score was 0.0308.

Study 4
Target: Sal-like protein 4, full length isoform B (SALL4, Homo sapiens, UniProt Q9UJQ4-2, residues 1-616)
Method: universal PBM
Molecule type: double-stranded DNA, one strand shown
Matrix: in vitro
Tested at: not given
Setting: 8-mer, flanks averaged, mean of replicates
Reading: higher = stronger binding
Residues (chain): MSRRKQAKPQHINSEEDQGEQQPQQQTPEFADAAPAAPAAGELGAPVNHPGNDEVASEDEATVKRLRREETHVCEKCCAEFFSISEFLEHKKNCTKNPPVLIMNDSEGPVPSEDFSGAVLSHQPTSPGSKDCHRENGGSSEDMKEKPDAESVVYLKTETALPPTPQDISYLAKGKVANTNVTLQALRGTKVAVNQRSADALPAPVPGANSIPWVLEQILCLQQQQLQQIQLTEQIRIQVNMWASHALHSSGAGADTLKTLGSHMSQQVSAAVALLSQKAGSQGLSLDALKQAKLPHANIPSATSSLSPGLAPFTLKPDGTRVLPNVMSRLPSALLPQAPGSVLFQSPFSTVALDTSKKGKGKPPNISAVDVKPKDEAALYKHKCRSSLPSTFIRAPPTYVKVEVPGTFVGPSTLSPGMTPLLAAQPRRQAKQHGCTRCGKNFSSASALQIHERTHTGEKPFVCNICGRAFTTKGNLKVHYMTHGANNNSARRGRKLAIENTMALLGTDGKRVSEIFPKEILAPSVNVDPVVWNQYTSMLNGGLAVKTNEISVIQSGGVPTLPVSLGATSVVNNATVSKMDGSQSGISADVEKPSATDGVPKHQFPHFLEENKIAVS
`GTAATCCA` has an E-score of 0.188.
`ATCCCATG` gave an E-score of -0.0171.
For `AGATCCTA`, the E-score was 0.00547.
The E-score of `ACCAAGGT` is reported as -0.146.
`CTGACGGA` gave an E-score of -0.0385.
For `CGACCCCA`, the E-score was -0.211.
`GACCCGAC` gave an E-score of -0.263.
For `TCTCCTAA`, the E-score was 0.116.
`CTCAGGTC` gave an E-score of -0.183.
`ATTACTTA` has an E-score of 0.316.
For `TAAGGGAA`, the E-score was 0.187.
`CGGATGAA` has an E-score of 0.0378.
With `AGGGGAAG` the E-score was -0.212.
`GATGAAAC` gave an E-score of 0.089.
With `CGCGGTTC` the E-score was -0.216.
`AAGGGGTA` has an E-score of -0.0842.
`TGCACAAA` gave an E-score of 0.242.
`AACCTTCT` has an E-score of -0.141.
With `AAGAATCA` the E-score was 0.212.
The E-score of `AGCCACAT` is reported as 0.143.
`ACAACACC` has an E-score of 0.135.
For `CCTTGTGC`, the E-score was -0.135.
For `AATCGGCC`, the E-score was -0.29.
With `GACGTCTC` the E-score was -0.0966.
The E-score of `CAAGCAAC` is reported as 0.00281.

Study 5
Target: Fragile X messenger ribonucleoprotein 1, C-terminal low-complexity region (Fmr1, Mus musculus, UniProt P35922)
Method: RNA Bind-n-Seq
Molecule type: RNA
Matrix: in vitro
Tested at: 200 nM
Setting: whole 134-nt RNA, ends assumed
Together with: 150 mM LiCl
Relative to: input library
Reading: higher = stronger binding
All molecules: 7-deaza-guanosine replaces G
Constant ends, left off below: GGGAGUUCUACAGUCCGACGAUC … UGGAAUUCUCGGGUGUCAAGG
`UAACUUUAGAGGAGGAUCUGAUGGAUAUGGCAGUGGACGUGGAUCUGGGGAUGGCUAUAAUGGGUAUGGAGGAGGACCUGGAGGUGGCAA` has a log2 enrichment of -0.2.
For `GCAGGAAGUAAAAACAAAUGGAAAUGCUUCGGAUAGUGGCAGGGGUGGGGGUUGCUCAGGAAAGGGUGGGAUGGGAGUGGGUAAAGAGUU`, the log2 enrichment was 1.49.
With `UCAAGUCCUGUGCUACACAUCGUAUGUACCGAAUCGGAAAGGAAAGGGAAAGGGGAAAGUAUUAUGUUACGCCGUUCGGAUCUGCACUUC` the log2 enrichment was -0.976.
`AAGUCCUGUGCUACACAUCGUAUGUACCGAAUCAAACCCCCAAAUUUAAACCCAAAAAAGUAUUAUGUUACGCCGUUCGGAUCUGCACUU` gave a log2 enrichment of 0.781.
`AGUCCUGUGCUACACAUCGUAUGUACCGAAUCAAAUUUAAAUUUAAACCCCCCCAAAAAAGUAUUAUGUUACGCCGUUCGGAUCUGCACU` gave a log2 enrichment of 1.49.
`UAACUUUAGAGGAGGAUCUGAUGGAUAUGGCAGUGGACGUGGAUUUGGGGAUGGCUAUAAUGGGUAUGGAGGAGGACCUGGAGGUGGCGA` has a log2 enrichment of 0.534.
`UGGGAGGUGGAUUUUGUUUAUUUUUUUAGCUCAUUUCCAGGGGUGGGAAUUUUUUUUUAAUUUGUGUCAUGAAUAAAGUUGUUUUUGAAA` gave a log2 enrichment of 0.0859.
`CCCAUCAUGUUCAGAGGUGAGGUCCGUCUGAAUGUCGAAGAGAAGAAGACUCGAGCUGCCAGGGAAGGCGACCGACGAGAUAAUCGCCUU` has a log2 enrichment of -3.65.
With `AGUCCUGUGCUACACAUCGUAUGUACCGAAUCGGGGAAAAAAAGGGGUGGGGAGGGGAAAGUAUUAUGUUACGCCGUUCGGAUCUGCACU` the log2 enrichment was -0.271.
For `UGAAGACUAUGAGACUGCUCUAUCAGGAAAGGAAGCCCUUUCGGCUGCGCUGCGCUCACAAAACCUCACCAAGAGUACAGAGAACCACAG`, the log2 enrichment was -0.331.
With `GUCCUGUGCUACACAUCGUAUGUACCGAAUCGGGAAAAAAAGGGUUUUUGGGAAAGGGAAAGUAUUAUGUUACGCCGUUCGGAUCUGCAC` the log2 enrichment was -1.85.

Repeated from above (study 1):
`TRRRLFVENDSP`: “growth enrichment score” -0.792.
`FQDSGYNELKSCSFDN` — result for “growth enrichment score”: -0.109.
`SGYLTDENEVGFRG` — result for “growth enrichment score”: 0.491.
`VLVRTSACRSLFGPVD` — result for “growth enrichment score”: -0.338.
Under “growth enrichment score”, `RNRGPKLNAMLRLGVL` is recorded as -1.51.
For `NNIRKALSFDNRGEEH`, “growth enrichment score” read 1.5.
`QNPCGSKACRRLFGPV`: “growth enrichment score” -0.264.
`LENIEPLQVSFAVLSS`: “growth enrichment score” -0.388.
`TSPGPVLLHPSPSTTQ` — result for “growth enrichment score”: 0.554.
Under “growth enrichment score”, `SDSTVTKLDFDLEP` is recorded as 0.306.
For `VRDLSYRLVFLACCVA`, “growth enrichment score” read -0.276.
